# Published values from different studies.
# Lines come from different studies, so protocols differ. ± marks the error that the study gave.
SMILES,assay,system,conditions,Cmax
N.N.O=C([O-])C1(C(=O)[O-])CCC1.[Pt+2],measured: non-protein-bound platinum,"human, plasma ultrafiltrate","target AUC 2, median",9300 ng/mL
OCc1ncc2n1-c1ccc(Cl)cc1C(c1ccccc1F)=NC2,,"human, plasma","oral, 2.5 mg, day 1",3.7 ng/mL
Cc1ncc2n1-c1ccc(Cl)cc1C(c1ccccc1F)=NC2,,"healthy male humans, plasma","oral, 7.5 mg single dose, phase I DDI study, alone",27.2 ng/mL
O=c1ccc2ncc(=O)n3c2n1C[C@H]3CN1CCC(NCc2cc3c(cn2)OCCC3)CC1,,"healthy human volunteers, plasma","oral, 1500 mg single dose, arithmetic mean, alone",3940 ng/mL
Cc1ncc2n1-c1ccc(Cl)cc1C(c1ccccc1F)=NC2,,"human, plasma","oral, 2 mg, day 1, single dose alone, geometric LS mean",9.2 ng/mL
CC(C)[C@H](N)C(=O)NCCCS(=O)(=O)O,,"human, plasma","oral, 265 mg twice daily, week 65, steady state",5600 ng/mL
Cn1ncc(-c2nc(N[C@H]3CC[C@H](N)CC3)ncc2Cl)c1CC1CC1,HPLC-MS/MS,human patients,"oral, 3 mg, day 1",4.72 ng/mL
C[C@H](NC(=O)c1c(C(F)F)nn(C)c1Oc1cccc(C(F)(F)F)c1)c1ccc(C(=O)O)cc1,,"human, plasma","125 mg, cycle 1 day 8, mean",178 ng/mL
N.N.O=C([O-])C1(C(=O)[O-])CCC1.[Pt+2],"ICP-MS platinum, measured: platinum","human patients, plasma","dose not given, carboplatin target AUC 4, cycle 1 day 1",30000 ng/mL
O=C(O)C(F)(F)C(F)(F)C(F)(F)C(F)(F)C(F)(F)C(F)(F)C(F)(F)F,two-compartment model,"human, plasma","oral, 50 mg single dose, geometric mean",9250 ng/mL
O[C@H]1CCCN[C@@H]1CCCn1cnc2c(Cl)c(Cl)ccc21,,"healthy human, plasma","oral, 150 mg, steady state, added: nintedanib 150 mg",318 ng/mL
CC(=O)c1c(C)c2cnc(Nc3ccc(C4CCN(CCS(C)(=O)=O)CC4)cn3)nc2n(C2CCCC2)c1=O,,"human, plasma","oral, 75 mg twice daily, day 1, single dose, added: letrozole",149 ng/mL
Cc1ncc2n1-c1ccc(Cl)cc1C(c1ccccc1F)=NC2,,"human, plasma","oral, 2 mg, day 1",8.32 ng/mL
COc1ccc(C[C@@H]2NC(=O)[C@H]([C@@H](C)O)NC(=O)[C@@H]3[C@@H]4CCN3C(=O)[C@@H]3Cc5cn(c6ccc(F)cc56)CCCCCCN(Cc5ccc(cc5)CCNC(=O)[C@]5(C)CCCN5C2=O)C(=O)CCC(=O)N[C@@H](C)C(=O)N[C@H](CNC(=O)CCCCC[N+](C)(C)C)C(=O)N[C@@H](Cc2cccc(c2)CNC(=O)CO4)C(=O)N3)cc1,,"human, plasma","oral, 40 mg, high-fat breakfast 30 min before, added: sodium caprate 720 mg",3.5 nM
O=C(O)C[C@H](O)C[C@H](O)/C=C/c1c(C2CC2)nc2ccccc2c1-c1ccc(F)cc1,,"human, plasma","oral, 2 mg",28 ng/mL
OCc1ncc2n1-c1ccc(Cl)cc1C(c1ccccc1F)=NC2,,"humans, plasma","3 mg of midazolam, midazolam alone",3.9 ng/mL
OCc1ncc2n1-c1ccc(Cl)cc1C(c1ccccc1F)=NC2,CYP3A4 probe metabolite,"human, plasma","oral, 2 mg midazolam, day -7, probe cocktail alone, geometric mean",45.2 ng/mL
C=CCNc1c(O)cc2c(O)c1C[C@@H](C)C[C@H](OC)[C@H](O)[C@@H](C)/C=C(\C)[C@H](OC(N)=O)[C@@H](OC)/C=C\C=C(/C)C(=O)N2,,"human, plasma",400 mg/m2,6740 ng/mL
COc1ccc(F)cc1C(=O)NCc1ccc(-c2nn([C@@H](C)C(F)(F)F)c(N)c2C(N)=O)cc1,,"human, plasma","oral, 200 mg once daily, added: oral midazolam",8750 ng/mL
CC(C)C[C@H](NC(=O)[C@H](CCc1ccccc1)NC(=O)CN1CCOCC1)C(=O)N[C@@H](Cc1ccccc1)C(=O)N[C@@H](CC(C)C)C(=O)[C@@]1(C)CO1,,"human, plasma","intravenous, 20 mg/m^2 over 10 min, cycle 1 day 1",1530 ± 407 ng/mL
CNC(=O)c1c(C)oc2cc(Oc3ccnc4cc(OCCN5CCOCC5)ccc34)ccc12,,"human, fasted","concentration not given, mean",34.4 ng/mL
CC(=O)C[C@@H](c1ccccc1)c1c(O)c2ccccc2oc1=O,,human,"dose not given, alone",530 ng/mL
C=C(C)[C@@H]1CC[C@]2(NCCN3CCS(=O)(=O)CC3)CC[C@]3(C)[C@H](CC[C@@H]4[C@@]5(C)CC=C(C6=CC[C@@](COc7ncccc7C#N)(C(=O)O)CC6)C(C)(C)[C@@H]5CC[C@]43C)[C@@H]12,,"human, fed","oral, 100 mg tablet, geometric LS mean",519 ng/mL
OCc1ncc2n1-c1ccc(Cl)cc1C(c1ccccc1F)=NC2,,human,"dose not given, metabolite of midazolam, added: midazolam alone",5.43 ng/mL
C[C@]1(CO)Cc2ncn(-c3ccc(C#N)c(Cl)c3)c2C(=O)O1,,"human, plasma","0.7 mg single dose, geometric mean",25.6 nM
O=C(O)CCS(=O)(=O)O,,"human, plasma","oral, 265 mg twice daily, steady state week 65",440 ng/mL
OCc1ncc2n1-c1ccc(Cl)cc1C(c1ccccc1F)=NC2,,"healthy human volunteers, plasma","5 mg, day 11, fed, added: once daily, momelotinib 200 mg, days 4 to 11",5.3 ng/mL
OCc1ncc2n1-c1ccc(Cl)cc1C(c1ccccc1F)=NC2,,"human, plasma","oral, 7.5 mg of midazolam, day 1, arithmetic mean, no amenamevir",16.4 ng/mL

# For quick reference, copied from above:
SMILES,assay,system,conditions,Cmax
CC(=O)C[C@@H](c1ccccc1)c1c(O)c2ccccc2oc1=O,,human,"dose not given, alone",530 ng/mL
O[C@H]1CCCN[C@@H]1CCCn1cnc2c(Cl)c(Cl)ccc21,,"healthy human, plasma","oral, 150 mg, steady state, added: nintedanib 150 mg",318 ng/mL
